Published values from different studies.
Each numbered part is a random draw from the data of one study; scales do not carry over between parts.

Series 1 — method: protein-binding microarray; form: double-stranded DNA, one strand shown; medium: in vitro; concentration: not given; direction: higher = stronger binding
Target: Protein C-ets-1 (ETS1, Homo sapiens, UniProt P14921, residues 1-441, Y397A, full length assumed)
UniProt P14921, sequence (whole entry, unmodified, looked up): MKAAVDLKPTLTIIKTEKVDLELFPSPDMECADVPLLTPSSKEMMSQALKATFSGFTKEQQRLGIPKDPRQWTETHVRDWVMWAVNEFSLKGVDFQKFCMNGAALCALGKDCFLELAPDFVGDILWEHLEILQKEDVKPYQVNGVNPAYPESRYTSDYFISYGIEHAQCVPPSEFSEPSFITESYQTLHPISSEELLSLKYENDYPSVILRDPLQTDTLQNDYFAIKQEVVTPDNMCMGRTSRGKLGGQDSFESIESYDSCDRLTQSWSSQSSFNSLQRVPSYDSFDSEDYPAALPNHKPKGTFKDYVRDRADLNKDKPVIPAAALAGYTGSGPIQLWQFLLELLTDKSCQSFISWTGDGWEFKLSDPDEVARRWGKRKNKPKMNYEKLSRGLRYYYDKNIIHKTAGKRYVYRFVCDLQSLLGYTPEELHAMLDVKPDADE
Setting: k-mer, scored over probes, only values ≥0.25
Sequence	E-score
CCCCGCCC	0.348
ATTTCCCG	0.259
CAACAATC	0.335
CCCACCCC	0.326
ATGGGGAA	0.267
ACGGTAAA	0.261
CGGAAATA	0.337
GCGGGGTA	0.329
CGGAAGTC	0.474
GAAACGAC	0.282
CCCCTCCA	0.26
CAACTTCC	0.425

Series 2 — method: RNA Bind-n-Seq; form: RNA; medium: in vitro; concentration: 365 nM; relative to: no-protein control; direction: higher = stronger binding
Target: RNA binding protein fox-1 homolog 2, RRM domain, GST-SBP tag (RBFOX2, Homo sapiens, UniProt O43251-10, residues 100-194)
Setting: natural RNA segment, single round, ends assumed
Residues (chain): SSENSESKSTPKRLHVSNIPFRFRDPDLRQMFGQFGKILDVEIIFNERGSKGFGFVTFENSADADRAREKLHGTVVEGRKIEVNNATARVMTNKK
Sequence	RBNS enrichment (R)
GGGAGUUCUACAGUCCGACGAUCCUAUUUGGCAAAUGACUUAAGGUUAGAUGAAGCUUCAGUCUUGAUAACUGAAUAUUCAAAGCACUGCGGGAAACCUGUGCCUCCAGACACUGCUCCCUGUGAAAUUCUGAUGGAAUUCUCGGGUGCCAA	0.259
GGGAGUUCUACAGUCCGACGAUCUGUGGUGUAUAUUUCAACAGGGACCCUUGUAAAUUGUCAUAUGCCAAUAAAAUGUCCUAAGUGGUAAUAGCUGGUCUCUGUUUGCCUGACGUUGAGGCUAUCGCUGCUUGUGGAAUUCUCGGGUGCCAA	1.18
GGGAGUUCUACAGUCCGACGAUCUAAUGUAGGAAUACAAAUGGUAAAUUAGCAGCACAUAUAAUUUUUUUUAAAUUUAUGAUCCAUUUUGUAUGGUCUCAAGUUGGAUGACCUCAUUACUAAUAUUUGUUGUAUGGAAUUCUCGGGUGCCAA	0.859
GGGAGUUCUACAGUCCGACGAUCUGAUGGGACCAACUUGUAAAGUAUGAGCCUUAAAUAAAUCUCCAUGCUGAAAAAUGUGUUCUAAUGCAACACAAAAACAUGAAGUGACUGCCCAGAGGUAGAGUUAGUGUUGGAAUUCUCGGGUGCCAA	0.344
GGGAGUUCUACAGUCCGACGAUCGUACUCUGAAUGAAGAGCCUGUGCCUCCCUCUCUCCCCUAACAGUUUUAAGGAGAUACAAUUUACCUGCCACAAAAUUUACCCAUUUUAGGUUUAUACUUAGAUGGUUGUUGGAAUUCUCGGGUGCCAA	0.609
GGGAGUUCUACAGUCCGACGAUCUGUAUUUCUUAGUAGUGAUACCAUUGAUCCUCUUACUUUUUUUACUCCAUUAAUACUAAUAAUUAUAUACUUUGCUGAGGAUCAAAACAGCCAAGAAAGGAAUUACUGCUUGGAAUUCUCGGGUGCCAA	0.644
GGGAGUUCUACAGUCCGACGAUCUACAUCCCAGGCCACCACCUCCGAGGAUGAAAAGAUGGCUGCCUGCAGCUUCCACGGAAUCCCUCCCUCACUGCCAGAGCAGCAUCUUCUCUGUGUACCACCUCUGCUGUUGGAAUUCUCGGGUGCCAA	2.16
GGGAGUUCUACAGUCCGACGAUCUUCUUAAGCACAAUUGGGCUUCUUCCAUCUCCAGGUUUUCUGCCAUUCUUAACCAAGGCUGCCUCUUCCAACAGGGCGGGAAUCAGACCUACUCCCCUAGGUCACAACUCUGGAAUUCUCGGGUGCCAA	0.441
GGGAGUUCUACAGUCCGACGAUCUGUGUGUUGGCGCGCUAAGUGCCACAUGCUUGUGUGUAGAGGAGGAGGUGGCCCUGCCGGCUCCGCGCUGCUGUGCCUGUGAUCCCUACCUGCUCCCCGCUCCUGUUGCCUGGAAUUCUCGGGUGCCAA	0.242
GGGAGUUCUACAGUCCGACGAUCAUACCCUACUUUUUCUGUACCUAAAUUUUCUUAAUAAAAUUUAGUAUAGCACUACAUUCUUUUUUAAGUGAUGUAAACUUUAGUUUCUUUAGCCCCUUCAUUUUGAAUAUUGGAAUUCUCGGGUGCCAA	1.5
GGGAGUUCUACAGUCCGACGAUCCACGGGGAGGUUUGUUUGUGUGAAAGGAAAGUAGUCCAGGCUGUCCCUGAAACUGAGUCUGUGGACACUGUGGAAAGCUUUGAACAAUUGUGUUUUCGUCACAGGAGUCUUGGAAUUCUCGGGUGCCAA	1.75
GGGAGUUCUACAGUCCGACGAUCUGAAUGGGAGGCCUUUCUAUAGUGGAGGCCUUUCCUUGAAGCCUAUGAACUGCAGGCCCCCUUUUGCCAUUGAUCUCAAAGCACUUGUCCUCAGGAUAGGGAAGAGCAGGUGGAAUUCUCGGGUGCCAA	0.288

Series 3 — method: aptamer microarray, sandwich; form: DNA with 2'F-ANA; medium: in vitro; concentration: 200 nM; with: Cy3 exosite-II aptamer, 400 nM; direction: higher = stronger binding; sequence: GGTTGGTGTGGTTGG
Target: Prothrombin, mature alpha-thrombin (F2, Homo sapiens, UniProt P00734)
Setting: whole 15-mer aptamer, many near background
Modification	mean fluorescence intensity [a.u.]
2'F-ANA at 2 4 5 9 11	74.7
2'F-ANA at 2 3 4 5	114
2'F-ANA at 2 3 4 5 10 11 14	47.1
2'F-ANA at 2 3 5 11 12 14	58.4
2'F-ANA at 1 4 5 6 7 8 9 12 13	77.7
2'F-ANA at 1 2 3 6 7 10 11 12 13 14 15	94.2
2'F-ANA at 2 3 4 5 6 7 9 10 11 13 14 15	51.2
2'F-ANA at 2 3 5 6 7 10 12 13 14	58.9
2'F-ANA at 2 6 7 8 9 10 13 15	96.2
2'F-ANA at 3 4 7 9 10 11 12 15	284
2'F-ANA at 1 2 9 11	139
2'F-ANA at 2 6 7 8 9 10 11 12 13 14 15	108
2'F-ANA at 1 2 6 10 11 12 14 15	52.2
2'F-ANA at 1 2 4 7 8 9 10 13 14	49.9
2'F-ANA at 2 3 5 6 7 8 10 14 15	50.6
2'F-ANA at 4 6 9 13 14 15	65.1
2'F-ANA at 1 2 4 6 7 8	162
2'F-ANA at 1 2 3 6 9 11 12 15	299
2'F-ANA at 1 2 3 5 7 8 10 13 14	49.5
2'F-ANA at 1 3 4 10 11 14	92.9
2'F-ANA at 1 2 3 9 10 13 14 15	54.3

Series 4 — method: protein-binding microarray; form: double-stranded DNA, one strand shown; medium: in vitro; concentration: 2540 nM top; setting: 60-bp whole probe; with: salmon DNA 0.4 mg/ml; relative to: random background probes; direction: higher = stronger binding; shared flanks, not repeated: GCCTAGCAC … GTCTTGATTCGCTTGACGCTGCTG
Target: Interferon regulatory factor 3, full length, phosphomimetic (IRF3, Homo sapiens, UniProt Q14653, residues 1-427, S386D/S396D/S398D/S402D/T404D/S405D)
Target sequence (chain): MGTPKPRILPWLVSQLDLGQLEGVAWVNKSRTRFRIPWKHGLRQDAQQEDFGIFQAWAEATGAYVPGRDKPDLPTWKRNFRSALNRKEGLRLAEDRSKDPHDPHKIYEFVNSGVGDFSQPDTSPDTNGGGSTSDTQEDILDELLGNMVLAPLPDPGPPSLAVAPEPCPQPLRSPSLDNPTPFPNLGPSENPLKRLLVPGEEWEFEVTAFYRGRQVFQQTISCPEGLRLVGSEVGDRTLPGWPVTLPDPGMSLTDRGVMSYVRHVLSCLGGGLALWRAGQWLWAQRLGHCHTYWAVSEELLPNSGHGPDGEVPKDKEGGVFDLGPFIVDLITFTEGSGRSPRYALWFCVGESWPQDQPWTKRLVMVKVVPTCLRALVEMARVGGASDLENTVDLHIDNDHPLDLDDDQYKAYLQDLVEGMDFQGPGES
Sequence	fitted relative affinity [z-score]
CTCTTTCTTTGCTTCACCCTGTGCTAG	2.09
AGAGGCGGGAGGGGGCGGGGGTGCTAG	-0.374
TTAGGACCGGGACTGGGTTAGTGCTAG	-0.57
TTAGGTATCCTTATCCTCTAGTGCTAG	5.19
GACGGTATCAGTATCGAGACGTGCTAG	3.38
GACGCTTTCGGACTGGGGACGTGCTAG	1.84
AACTGCATCCCAGGAGCTGGGTGCTAG	-0.396
GACGATTTCACTATCGAGACGTGCTAG	2.6
GACGATATCAGTCTCGAGAGGTGCTAG	0.895
TTAGGACTCGACTATCGGTTAGTGCTA	-0.24
TTAGAACTGAGTTTCGATGAGTGCTAG	1.02
GTTTTTTTTTAATTGAAATCGTGCTAG	1.83
ACCACTTTTATTTTCAGTATGTGCTAG	2.63
TCACTTTTCAGTCCCCTACTGTGCTAG	1.94
GACGGTCTCGTTTTCGGGACGTGCTAG	2.57
TTAGCTATCCTACTGCTTTAGTGCTAG	0.812
TTAGGTTTCGGGACTGGGTCAGTGCTA	4.26
GTGTATATATAATATATATTCGTGCTA	0.32
TGTTATTAAAATTTCATGAAGTGCTAG	0.251
TTAGAACTGGGGACTGCATTAGTGCTA	-1.08
GACGGACTGCTTCTCATGACGTGCTAG	-0.341
TCACCTTTGCCTCATCTTACTGTGCTA	0.828
CAGAATCTCTCATGTTACATTGTGCTA	0.22
TTACATATGTTTTTCATTTTGTGCTAG	1.23
TTAGGTTTCGTTTCCCTTTAGTGCTAG	9.64

Series 5 — method: protein binding microarray; form: double-stranded DNA, one strand shown; medium: in vitro; concentration: not given; relative to: not given; direction: higher = stronger binding
Target: Histone acetyltransferase KAT6A, winged helix 1, GST fusion (KAT6A, Homo sapiens, UniProt Q92794, residues 1-85)
Setting: 8-mer, flanks averaged, mean of 2 arrays, mostly near background
Target sequence (chain): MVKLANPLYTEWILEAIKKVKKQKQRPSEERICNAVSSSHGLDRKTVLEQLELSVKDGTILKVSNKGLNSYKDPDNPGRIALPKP
Sequence	E-score
AGCATTCG	-0.0578
GGGACAAC	0.00907
CGAACCGA	0.123
CTGAGCTA	0.00214
AGCTCAAG	-0.168
CGTTTACC	0.0916
AACCCTCA	-0.209
GTGTCGCA	0.135
CAATCGTC	-0.0986
AACTAGCG	0.318
GAAATCAA	-0.0237
CACGGATG	0.186
CCAGAGCG	0.123
CCCTCCCG	0.16
AGTGTGCG	0.0176
ATTTTACG	-0.033
AGCACTAA	-0.185
AGCACCAG	-0.252
AAATCTGC	-0.163
TCCTCTCA	-0.306
CTCGAAGA	-0.17
AACTTAGA	-0.278
GGGCGGGA	0.376
CTTGAAGA	-0.201
AAGCGCAG	0.244
